Values quoted from earlier work that unrelated publications cite.
Protocols differ between the studies behind these lines.

CC1=N[C@]2(C(=O)CO)[C@@H](C[C@H]3[C@@H]4C[C@@H](O)C5=CC(=O)C=C[C@]5(C)[C@H]4[C@@H](O)C[C@@]32C)O1
Cmax (children with Duchenne muscular dystrophy, plasma; oral daily, 0.9 mg/kg/day of deflazacort, steady state, age 4-11 years, added: deflazacort 0.9 mg/kg/day): 125 ng/mL

Cc1cc(=O)n(-c2ccccc2)n1C
Cmax (plasma; concentration not given): 92.5 µM

Nc1nc(NC2CC2)c2ncn([C@H]3C=C[C@@H](CO)C3)c2n1
Cmax (healthy, mostly White or Black; 600 mg, single dose, fasted, added: dolutegravir 50 mg, lamivudine 300 mg): 4130 ng/mL

O=C1c2cccc3c2[C@H](CCC3)CN1[C@@H]1CN2CCC1CC2
Cmax (healthy volunteers; oral, 0.75 mg single dose, mean, added: netupitant 450 mg): 1.86 ng/mL

CCN(CC)CCNC(=O)c1c(C)[nH]c(/C=C2\C(=O)Nc3ccc(F)cc32)c1C
Cmax (patients, plasma; dose not given, total concentration): 0.18 µM

Cc1cn(-c2cc(NC(=O)c3ccc(C)c(Nc4nccc(-c5cccnc5)n4)c3)cc(C(F)(F)F)c2)cn1
Cmax (plasma; concentration not given): 3.6 µM

CN(C)C(=O)c1cc2cnc(Nc3ccc(N4CCNCC4)cn3)nc2n1C1CCCC1
Cmax (glioblastoma patients; 900 mg once daily, 5 days): 3.75 µM

C[C@@H]1CCO[C@H]2Cn3cc(C(=O)NCc4ccc(F)cc4F)c(=O)c(O)c3C(=O)N12
Cmax (healthy, mostly White or Black; 50 mg, single dose, fasted, added: abacavir 600 mg, lamivudine 300 mg): 2530 ng/mL

COc1cc2nccc(Oc3ccc(NC(=O)C4(C(=O)Nc5ccc(F)cc5)CC4)cc3)c2cc1OC
Cmax (patients, plasma; dose not given, total concentration): 4.43 µM

Nc1ccn([C@@H]2CS[C@H](CO)O2)c(=O)n1
Cmax (healthy, mostly White or Black; 300 mg, single dose, fasted, added: abacavir 600 mg, dolutegravir 50 mg): 2200 ng/mL

Nc1ccc(S(=O)(=O)c2ccc(N)cc2)cc1
Cmax (plasma; concentration not given): 5.6 µM

C#Cc1cccc(Nc2ncnc3cc(OCCOC)c(OCCOC)cc23)c1
Cmax (patients, plasma; dose not given, total concentration): 3.11 µM

Cc1ccccc1-c1cc(N2CCN(C)CC2)ncc1N(C)C(=O)C(C)(C)c1cc(C(F)(F)F)cc(C(F)(F)F)c1
Cmax (healthy volunteers; oral, 450 mg single dose, mean, added: palonosetron 0.75 mg): 660 ng/mL

C[C@]12CC[C@@H]3c4ccc(O)cc4CC[C@H]3[C@@H]1CC[C@@H]2O
Cmax (plasma; concentration not given): 0.0006 µM

COc1cc(Nc2c(C#N)cnc3cc(OCCCN4CCN(C)CC4)c(OC)cc23)c(Cl)cc1Cl
Cmax (patients, plasma; dose not given, total concentration): 0.51 µM

CCOC(=O)[N-]c1cn(N2CCOCC2)n[o+]1
Cmax (plasma; concentration not given): 0.31 µM

CCCS(=O)(=O)Nc1ccc(F)c(C(=O)c2c[nH]c3ncc(-c4ccc(Cl)cc4)cc23)c1F
Cmax (patients, plasma; dose not given, total concentration): 126 µM

For quick reference, copied from above:
CCOC(=O)[N-]c1cn(N2CCOCC2)n[o+]1
Cmax (plasma; concentration not given): 0.31 µM

Cc1ccccc1-c1cc(N2CCN(C)CC2)ncc1N(C)C(=O)C(C)(C)c1cc(C(F)(F)F)cc(C(F)(F)F)c1
Cmax (healthy volunteers; oral, 450 mg single dose, mean, added: palonosetron 0.75 mg): 660 ng/mL
